{"data": "Published values pooled from the literature", "B1": "C1S 438-688 S632A (Homo sapiens, UniProt P09871); chain IIGGSDADIKNFPWQVFFDNPWAGGALINEYWVLTAAHVVEGNREPTMYVGSTSVQTSRLAKSKMLTPEHVFIHPGWKLLEVPEGRTNFDNDIALVRLKDPVKMGPTVSPICLPGTSSDYNLMDGDLGLISGWGRTEKRDRAVRLKAARLPVAPLRKCKEVKVEKPTADAEAYVFTPNMICAGGEKGMDSCKGDAGGAFAVQDPNDKTKFYAAGLVSWGPQCGTYGLYTRVKNYVDWIMKTMQENSTPRED", "B2": "Flrt2 35-362 (Mus musculus, UniProt Q8BLU0); chain ACPSVCRCDRNFVYCNERSLTSVPLGIPEGVTVLYLHNNQINNAGFPAELHNVQSVHTVYLYGNQLDEFPMNLPKNVRVLHLQENNIQTISRAALAQLLKLEELHLDDNSISTVGVEDGAFREAISLKLLFLSKNHLSSVPVGLPVDLQELRVDENRIAVISDMAFQNLTSLERLIVDGNLLTNKGIAEGTFSHLTKLKEFSIVRNSLSHPPPDLPGTHLIRLYLQDNQINHIPLTAFANLRKLERLDISNNQLRMLTQGVFDHLSNLKQLTARNNPWFCDCSIKWVTEWLKYIPSSLNVRGFMCQGPEQVRGMAVRELNMNLLSCPT", "B3": "IGSF10 29-281 (Homo sapiens, UniProt Q6WRI0); sequence looked up; chain CPRRCACYMPTEVHCTFRYLTSIPDSIPPNVERINLGYNSLVRLMETDFSGLTKLELLMLHSNGIHTIPDKTFSDLQALQVLKMSYNKVRKLQKDTFYGLRSLTRLHMDHNNIEFINPEVFYGLNFLRLVHLEGNQLTKLHPDTFVSLSYLQIFKISFIKFLYLSDNFLTSLPQEMVSYMPDLDSLYLHGNPWTCDCHLKWLSDWIQEKPDVIKCKKDRSPSSAQQCPLCMNPRTSKGKPLAMVSAAAFQCAK", "B4": "BRAF kinase 448-723 K723G/P722S/S720E/L716E/S713E/Q709R/L706S/A688R/Y673S/N661V/K630S/V600E/L588N/Q562R (Homo sapiens, UniProt P15056); sequence looked up; chain DDWEIPDGQITVGQRIGSGSFGTVYKGKWHGDVAVKMLNVTAPTPQQLQAFKNEVGVLRKTRHVNILLFMGYSTKPQLAIVTQWCEGSSLYHHLHASETKFEMKKLIDIARQTARGMDYLHAKSIIHRDLKSNNIFLHEDNTVKIGDFGLATEKSRWSGSHQFEQLSGSILWMAPEVIRMQDSNPYSFQSDVYAFGIVLYELMTGQLPYSNINVRDQIIFMVGRGSLSPDLSKVRSNCPKRMKRLMAECLKKKRDERPSFPRILAEIEELARELSG", "note": "± marks the error that the study gave.", "chain of UniProt P06241 (whole entry, looked up)": "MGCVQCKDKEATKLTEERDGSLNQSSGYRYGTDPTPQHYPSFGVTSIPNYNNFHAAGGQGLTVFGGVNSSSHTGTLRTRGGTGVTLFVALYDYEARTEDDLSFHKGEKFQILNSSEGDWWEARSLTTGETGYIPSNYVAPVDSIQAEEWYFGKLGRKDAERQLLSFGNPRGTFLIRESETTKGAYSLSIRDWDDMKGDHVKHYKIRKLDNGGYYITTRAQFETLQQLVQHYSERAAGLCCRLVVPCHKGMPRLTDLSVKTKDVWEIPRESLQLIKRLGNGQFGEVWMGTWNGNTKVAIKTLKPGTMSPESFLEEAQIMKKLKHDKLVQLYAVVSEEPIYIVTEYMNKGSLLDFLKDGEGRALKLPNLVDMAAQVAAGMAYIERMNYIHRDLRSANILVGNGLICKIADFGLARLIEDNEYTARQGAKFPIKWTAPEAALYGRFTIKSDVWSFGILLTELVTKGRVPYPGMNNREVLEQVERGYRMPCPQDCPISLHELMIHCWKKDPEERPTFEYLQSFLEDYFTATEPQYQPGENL", "chain of UniProt P26039 (whole entry, looked up)": "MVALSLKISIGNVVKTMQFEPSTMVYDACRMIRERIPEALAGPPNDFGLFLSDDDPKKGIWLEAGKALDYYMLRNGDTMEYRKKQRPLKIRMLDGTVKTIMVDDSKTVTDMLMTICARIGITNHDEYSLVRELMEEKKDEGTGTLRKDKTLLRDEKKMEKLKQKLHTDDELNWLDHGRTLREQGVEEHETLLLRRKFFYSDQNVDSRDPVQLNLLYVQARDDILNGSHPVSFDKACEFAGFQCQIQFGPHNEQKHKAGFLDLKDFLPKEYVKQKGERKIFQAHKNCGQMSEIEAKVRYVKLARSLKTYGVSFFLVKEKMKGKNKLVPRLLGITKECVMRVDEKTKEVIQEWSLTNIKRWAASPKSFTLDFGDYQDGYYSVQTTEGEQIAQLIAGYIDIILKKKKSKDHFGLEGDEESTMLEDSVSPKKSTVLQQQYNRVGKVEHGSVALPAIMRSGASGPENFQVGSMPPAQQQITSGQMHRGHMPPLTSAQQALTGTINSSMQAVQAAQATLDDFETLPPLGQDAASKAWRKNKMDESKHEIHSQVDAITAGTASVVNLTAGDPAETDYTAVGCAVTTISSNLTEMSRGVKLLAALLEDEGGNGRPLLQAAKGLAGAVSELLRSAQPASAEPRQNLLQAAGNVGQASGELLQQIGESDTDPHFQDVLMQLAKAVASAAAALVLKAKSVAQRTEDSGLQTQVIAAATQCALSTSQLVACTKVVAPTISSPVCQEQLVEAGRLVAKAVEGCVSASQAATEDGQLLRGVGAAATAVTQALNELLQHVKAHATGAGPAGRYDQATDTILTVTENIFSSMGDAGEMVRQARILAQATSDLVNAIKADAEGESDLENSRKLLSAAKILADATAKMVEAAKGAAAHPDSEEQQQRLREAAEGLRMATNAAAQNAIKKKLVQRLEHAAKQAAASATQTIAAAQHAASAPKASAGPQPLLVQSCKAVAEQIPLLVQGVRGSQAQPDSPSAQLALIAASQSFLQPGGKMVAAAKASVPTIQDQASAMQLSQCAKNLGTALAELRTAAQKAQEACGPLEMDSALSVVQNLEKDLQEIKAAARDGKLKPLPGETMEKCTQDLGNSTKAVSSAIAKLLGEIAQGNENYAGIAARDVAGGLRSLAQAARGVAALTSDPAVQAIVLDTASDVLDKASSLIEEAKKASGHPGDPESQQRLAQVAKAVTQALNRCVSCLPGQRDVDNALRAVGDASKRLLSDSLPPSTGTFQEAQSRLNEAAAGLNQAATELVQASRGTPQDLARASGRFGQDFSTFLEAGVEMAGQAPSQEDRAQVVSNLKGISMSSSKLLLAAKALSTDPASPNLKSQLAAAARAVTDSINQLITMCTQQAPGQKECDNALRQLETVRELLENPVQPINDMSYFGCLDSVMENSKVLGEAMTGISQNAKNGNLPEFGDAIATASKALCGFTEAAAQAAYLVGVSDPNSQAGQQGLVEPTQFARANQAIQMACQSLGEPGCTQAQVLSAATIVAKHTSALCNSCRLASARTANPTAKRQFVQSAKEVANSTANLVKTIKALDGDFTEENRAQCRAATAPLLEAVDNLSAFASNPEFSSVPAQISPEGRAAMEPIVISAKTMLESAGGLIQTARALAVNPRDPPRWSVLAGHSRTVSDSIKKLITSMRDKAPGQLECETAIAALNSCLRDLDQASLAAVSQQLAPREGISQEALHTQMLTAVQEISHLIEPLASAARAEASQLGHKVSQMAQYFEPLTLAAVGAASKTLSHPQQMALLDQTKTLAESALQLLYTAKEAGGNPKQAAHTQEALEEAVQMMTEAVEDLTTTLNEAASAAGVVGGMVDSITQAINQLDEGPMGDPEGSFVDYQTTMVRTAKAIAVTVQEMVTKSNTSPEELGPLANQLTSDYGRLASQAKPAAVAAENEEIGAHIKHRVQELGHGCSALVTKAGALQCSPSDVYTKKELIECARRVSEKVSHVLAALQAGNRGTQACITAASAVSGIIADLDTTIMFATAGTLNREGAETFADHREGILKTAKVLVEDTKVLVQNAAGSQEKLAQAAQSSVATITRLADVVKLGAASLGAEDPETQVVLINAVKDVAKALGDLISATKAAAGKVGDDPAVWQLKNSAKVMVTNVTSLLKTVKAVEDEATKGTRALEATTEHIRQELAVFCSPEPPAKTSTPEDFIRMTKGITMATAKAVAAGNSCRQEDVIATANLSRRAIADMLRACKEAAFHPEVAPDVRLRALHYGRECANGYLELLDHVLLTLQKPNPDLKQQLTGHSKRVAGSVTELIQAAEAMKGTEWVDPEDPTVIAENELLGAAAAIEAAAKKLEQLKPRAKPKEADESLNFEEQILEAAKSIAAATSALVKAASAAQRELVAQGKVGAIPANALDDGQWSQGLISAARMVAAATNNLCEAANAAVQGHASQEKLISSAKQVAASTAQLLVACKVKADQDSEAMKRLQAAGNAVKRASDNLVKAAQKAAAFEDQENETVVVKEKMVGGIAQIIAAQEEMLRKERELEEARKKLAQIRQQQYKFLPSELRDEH", "chain of UniProt P54826 (whole entry, looked up)": "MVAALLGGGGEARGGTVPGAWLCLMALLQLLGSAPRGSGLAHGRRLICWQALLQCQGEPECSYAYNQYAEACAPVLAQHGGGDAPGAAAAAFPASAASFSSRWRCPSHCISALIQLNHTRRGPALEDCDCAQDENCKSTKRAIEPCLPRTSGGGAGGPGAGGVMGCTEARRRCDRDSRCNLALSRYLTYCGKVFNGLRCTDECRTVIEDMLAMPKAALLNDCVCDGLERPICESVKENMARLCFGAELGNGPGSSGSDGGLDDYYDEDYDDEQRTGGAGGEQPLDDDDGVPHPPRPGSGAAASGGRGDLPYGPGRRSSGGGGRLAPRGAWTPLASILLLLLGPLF", "chain of UniProt Q86YC2 (whole entry, looked up)": "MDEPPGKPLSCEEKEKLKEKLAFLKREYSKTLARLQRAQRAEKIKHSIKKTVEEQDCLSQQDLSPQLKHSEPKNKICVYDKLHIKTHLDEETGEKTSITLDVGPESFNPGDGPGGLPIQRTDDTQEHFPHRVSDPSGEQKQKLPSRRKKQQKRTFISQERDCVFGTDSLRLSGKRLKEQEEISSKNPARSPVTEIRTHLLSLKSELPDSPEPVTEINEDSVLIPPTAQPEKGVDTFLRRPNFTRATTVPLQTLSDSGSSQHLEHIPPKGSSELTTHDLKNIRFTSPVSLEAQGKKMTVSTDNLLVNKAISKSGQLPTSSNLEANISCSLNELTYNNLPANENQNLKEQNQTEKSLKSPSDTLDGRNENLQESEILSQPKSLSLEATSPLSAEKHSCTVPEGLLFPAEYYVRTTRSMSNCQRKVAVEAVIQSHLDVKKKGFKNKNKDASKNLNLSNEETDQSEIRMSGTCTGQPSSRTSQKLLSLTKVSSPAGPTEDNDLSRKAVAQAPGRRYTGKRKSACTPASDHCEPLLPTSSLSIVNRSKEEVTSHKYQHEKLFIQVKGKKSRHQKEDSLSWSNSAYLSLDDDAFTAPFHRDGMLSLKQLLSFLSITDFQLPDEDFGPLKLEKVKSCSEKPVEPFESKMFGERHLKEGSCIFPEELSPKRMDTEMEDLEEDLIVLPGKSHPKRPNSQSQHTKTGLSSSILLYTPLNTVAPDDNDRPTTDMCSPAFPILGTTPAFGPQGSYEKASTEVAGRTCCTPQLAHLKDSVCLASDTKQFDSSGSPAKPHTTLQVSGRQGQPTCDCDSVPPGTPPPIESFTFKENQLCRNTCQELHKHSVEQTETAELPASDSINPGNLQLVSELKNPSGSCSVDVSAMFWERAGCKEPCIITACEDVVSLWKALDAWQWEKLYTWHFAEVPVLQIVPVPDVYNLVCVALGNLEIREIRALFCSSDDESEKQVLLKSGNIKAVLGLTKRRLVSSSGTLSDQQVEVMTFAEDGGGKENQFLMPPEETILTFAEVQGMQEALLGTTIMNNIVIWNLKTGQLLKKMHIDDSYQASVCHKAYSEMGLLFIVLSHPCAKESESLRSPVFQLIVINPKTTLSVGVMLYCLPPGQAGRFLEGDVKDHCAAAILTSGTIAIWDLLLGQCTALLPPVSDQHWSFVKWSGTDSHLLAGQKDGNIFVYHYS", "chain of UniProt P05155 (whole entry, looked up)": "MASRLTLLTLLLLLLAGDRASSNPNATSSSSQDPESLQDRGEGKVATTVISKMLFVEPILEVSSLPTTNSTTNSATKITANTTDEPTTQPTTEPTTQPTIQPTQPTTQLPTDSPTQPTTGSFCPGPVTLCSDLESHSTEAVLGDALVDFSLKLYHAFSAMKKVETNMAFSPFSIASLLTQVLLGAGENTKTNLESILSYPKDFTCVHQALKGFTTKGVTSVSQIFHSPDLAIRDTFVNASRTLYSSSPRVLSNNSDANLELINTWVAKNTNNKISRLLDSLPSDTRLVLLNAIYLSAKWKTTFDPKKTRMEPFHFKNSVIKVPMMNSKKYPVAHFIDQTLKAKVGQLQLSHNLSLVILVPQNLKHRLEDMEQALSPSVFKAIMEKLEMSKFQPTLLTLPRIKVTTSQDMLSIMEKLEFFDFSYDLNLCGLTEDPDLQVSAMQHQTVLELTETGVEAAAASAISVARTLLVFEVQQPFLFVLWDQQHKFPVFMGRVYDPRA"}
{"Molecule": "B1 (C1S 438-688 S632A)", "tested on": "SERPING1 111-500 (Homo sapiens, UniProt P05155)", "assay": "SPR", "conditions": "together with: Ca2+", "endpoint": "Kd", "value": "2600 nM"}
{"Molecule": "B2 (Flrt2 35-362)", "tested on": "Unc5D 31-382 (Rattus norvegicus, UniProt F1LW30)", "assay": "SPR", "endpoint": "Kd", "value": "300 nM"}
{"Molecule": "PAPALPPKPPKPTT (PIK3R1 303-316 (Homo sapiens))", "tested on": "FYN 82-144 (Homo sapiens, UniProt P06241)", "assay": "ITC", "test system": "peptide", "endpoint": "Kd", "value": "53400 nM"}
{"Molecule": "WHRSYYTWNLAG (TR3-LAG peptide; Fam label)", "tested on": "CD274 (Homo sapiens, UniProt Q9NZQ7)", "assay": "flow cytometry", "test system": "peptide, MDA-MB-231", "conditions": "apparent, on cells", "endpoint": "Kd", "value": "274 nM"}
{"Molecule": "B3 (IGSF10 29-281)", "tested on": "GAS1 (Homo sapiens, UniProt P54826)", "assay": "ITC", "endpoint": "Kd", "value": "376 nM"}
{"Molecule": "GSGAGPETLV", "tested on": "human MAGI1-2/6 PDZ construct (MBP fusion)", "assay": "automated holdup", "test system": "peptide, crude extract", "conditions": "concentration not given, uncorrected, unit not given", "how to read": "relative to: biotin control resin, higher = stronger binding", "endpoint": "binding intensity", "value": 0.326}
{"Molecule": "KLLMIIHDRREFAKFEKEKMNAKWDTGENPIYKSPINNFKNPNYGRKAGL (ITGB1 752-801 Q778G (Homo sapiens, UniProt P05556-5); sequence looked up)", "tested on": "Tln1 309-405 (Mus musculus, UniProt P26039)", "assay": "NMR titration", "endpoint": "Kd", "value": "193000 nM"}
{"Molecule": "PRPRPRPRPRPRPRPRPRPRPRPRPRPRPRPRPRPRPRPR ((PR)20 20 repeats; TAMRA label N-terminal)", "tested on": "FUS 1-214 (Homo sapiens, UniProt P35637)", "assay": "fluorescence polarisation", "test system": "peptide", "endpoint": "Kd", "value": "144 ± 25.5 nM"}
{"Molecule": "BRCA1 coiled-coil domain I1405V (Homo sapiens)", "tested on": "PALB2 1-56 (Homo sapiens, UniProt Q86YC2)", "assay": "ITC", "endpoint": "Kd", "value": "21000 nM"}
{"Molecule": "GRGDLGRLKK (TGFB3 260-269; aminocaproic acid, FITC label)", "tested on": "ITGAV/ITGB8 ectodomain, soluble, clasped", "assay": "fluorescence polarisation", "test system": "peptide", "endpoint": "Kd", "value": "12.5 nM"}
{"Molecule": "CDH2 extracellular domain (Homo sapiens)", "tested on": "FGB residues 15-66, dimer (Homo sapiens)", "assay": "ELISA", "endpoint": "Kd", "value": "13.3 nM"}
{"Molecule": "SVWLRKETRV", "tested on": "human MAGI1-2/6 PDZ construct (MBP fusion)", "assay": "automated holdup", "test system": "peptide, crude extract", "conditions": "concentration not given, uncorrected, unit not given", "how to read": "relative to: biotin control resin, higher = stronger binding", "endpoint": "binding intensity", "value": 0.908}
{"Molecule": "B4", "tested on": "MAP2K1 (Homo sapiens, UniProt Q02750)", "assay": "BLI", "endpoint": "Kd", "value": "508.1 ± 4.16 nM"}
{"note": "For quick reference, copied from above:"}
{"Molecule": "WHRSYYTWNLAG (TR3-LAG peptide; Fam label)", "tested on": "CD274 (Homo sapiens, UniProt Q9NZQ7)", "assay": "flow cytometry", "test system": "peptide, MDA-MB-231", "conditions": "apparent, on cells", "endpoint": "Kd", "value": "274 nM"}
